Measurements of several laboratories.
Numbered parts are unrelated; each lists some results of a single study.
Chain of UniProt Q9UM73 (whole entry, unmodified, looked up): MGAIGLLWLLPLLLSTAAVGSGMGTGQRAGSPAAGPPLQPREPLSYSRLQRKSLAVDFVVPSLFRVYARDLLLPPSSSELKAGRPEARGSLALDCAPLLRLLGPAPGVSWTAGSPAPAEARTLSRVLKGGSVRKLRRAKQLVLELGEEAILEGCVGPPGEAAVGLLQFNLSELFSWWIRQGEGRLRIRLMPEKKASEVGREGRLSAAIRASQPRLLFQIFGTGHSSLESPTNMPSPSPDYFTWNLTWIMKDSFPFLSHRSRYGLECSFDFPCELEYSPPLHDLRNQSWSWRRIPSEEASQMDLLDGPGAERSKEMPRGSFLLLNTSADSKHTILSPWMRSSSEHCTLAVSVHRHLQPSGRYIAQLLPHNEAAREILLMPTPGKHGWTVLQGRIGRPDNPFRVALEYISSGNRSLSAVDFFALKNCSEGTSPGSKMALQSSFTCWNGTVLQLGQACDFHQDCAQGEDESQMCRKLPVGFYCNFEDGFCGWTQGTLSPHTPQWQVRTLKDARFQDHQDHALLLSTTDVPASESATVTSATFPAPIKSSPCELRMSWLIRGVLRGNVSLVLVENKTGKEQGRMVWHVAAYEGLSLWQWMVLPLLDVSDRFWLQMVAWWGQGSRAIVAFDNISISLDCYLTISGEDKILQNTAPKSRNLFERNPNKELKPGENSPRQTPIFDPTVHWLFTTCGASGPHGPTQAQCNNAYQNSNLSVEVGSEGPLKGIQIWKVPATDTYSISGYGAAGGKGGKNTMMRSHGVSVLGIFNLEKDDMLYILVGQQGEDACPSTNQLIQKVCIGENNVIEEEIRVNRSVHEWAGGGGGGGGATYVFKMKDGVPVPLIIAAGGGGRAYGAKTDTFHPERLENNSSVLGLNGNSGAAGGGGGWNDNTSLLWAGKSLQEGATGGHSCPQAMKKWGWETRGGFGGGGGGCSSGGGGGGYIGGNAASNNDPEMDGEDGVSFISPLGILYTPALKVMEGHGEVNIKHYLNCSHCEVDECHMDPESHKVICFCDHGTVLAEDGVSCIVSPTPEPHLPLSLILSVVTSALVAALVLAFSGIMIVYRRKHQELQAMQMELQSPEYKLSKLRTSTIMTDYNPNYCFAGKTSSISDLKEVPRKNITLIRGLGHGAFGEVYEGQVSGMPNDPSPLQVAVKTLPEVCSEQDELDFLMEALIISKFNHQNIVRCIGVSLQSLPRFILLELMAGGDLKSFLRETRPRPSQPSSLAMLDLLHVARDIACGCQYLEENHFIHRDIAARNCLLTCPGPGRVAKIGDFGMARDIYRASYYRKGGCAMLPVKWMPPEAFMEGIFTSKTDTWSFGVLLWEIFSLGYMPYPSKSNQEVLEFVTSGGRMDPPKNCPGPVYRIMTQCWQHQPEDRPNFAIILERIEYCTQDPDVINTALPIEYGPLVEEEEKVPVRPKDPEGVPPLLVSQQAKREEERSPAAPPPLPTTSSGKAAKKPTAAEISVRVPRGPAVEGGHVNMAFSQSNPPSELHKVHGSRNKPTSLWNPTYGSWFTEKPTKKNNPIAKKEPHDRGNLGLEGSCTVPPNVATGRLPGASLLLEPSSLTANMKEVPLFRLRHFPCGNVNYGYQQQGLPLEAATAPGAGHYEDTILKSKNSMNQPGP
Chain of UniProt P0C1S8 (whole entry, looked up): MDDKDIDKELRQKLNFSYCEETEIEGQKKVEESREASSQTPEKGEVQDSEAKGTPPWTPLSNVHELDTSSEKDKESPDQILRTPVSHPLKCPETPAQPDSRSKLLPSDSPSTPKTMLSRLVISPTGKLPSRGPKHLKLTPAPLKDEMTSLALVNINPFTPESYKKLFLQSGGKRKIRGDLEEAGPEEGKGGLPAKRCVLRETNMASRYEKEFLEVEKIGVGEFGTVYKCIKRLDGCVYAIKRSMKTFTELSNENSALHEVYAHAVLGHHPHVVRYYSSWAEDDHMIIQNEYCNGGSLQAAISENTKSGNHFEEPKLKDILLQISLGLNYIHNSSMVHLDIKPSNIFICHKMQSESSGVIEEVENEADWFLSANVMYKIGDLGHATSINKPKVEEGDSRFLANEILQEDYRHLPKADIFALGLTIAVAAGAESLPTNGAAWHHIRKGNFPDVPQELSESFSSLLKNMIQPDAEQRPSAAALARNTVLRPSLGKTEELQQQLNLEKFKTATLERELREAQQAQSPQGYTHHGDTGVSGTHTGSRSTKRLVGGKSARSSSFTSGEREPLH
Chain of UniProt P21709 (whole entry, looked up): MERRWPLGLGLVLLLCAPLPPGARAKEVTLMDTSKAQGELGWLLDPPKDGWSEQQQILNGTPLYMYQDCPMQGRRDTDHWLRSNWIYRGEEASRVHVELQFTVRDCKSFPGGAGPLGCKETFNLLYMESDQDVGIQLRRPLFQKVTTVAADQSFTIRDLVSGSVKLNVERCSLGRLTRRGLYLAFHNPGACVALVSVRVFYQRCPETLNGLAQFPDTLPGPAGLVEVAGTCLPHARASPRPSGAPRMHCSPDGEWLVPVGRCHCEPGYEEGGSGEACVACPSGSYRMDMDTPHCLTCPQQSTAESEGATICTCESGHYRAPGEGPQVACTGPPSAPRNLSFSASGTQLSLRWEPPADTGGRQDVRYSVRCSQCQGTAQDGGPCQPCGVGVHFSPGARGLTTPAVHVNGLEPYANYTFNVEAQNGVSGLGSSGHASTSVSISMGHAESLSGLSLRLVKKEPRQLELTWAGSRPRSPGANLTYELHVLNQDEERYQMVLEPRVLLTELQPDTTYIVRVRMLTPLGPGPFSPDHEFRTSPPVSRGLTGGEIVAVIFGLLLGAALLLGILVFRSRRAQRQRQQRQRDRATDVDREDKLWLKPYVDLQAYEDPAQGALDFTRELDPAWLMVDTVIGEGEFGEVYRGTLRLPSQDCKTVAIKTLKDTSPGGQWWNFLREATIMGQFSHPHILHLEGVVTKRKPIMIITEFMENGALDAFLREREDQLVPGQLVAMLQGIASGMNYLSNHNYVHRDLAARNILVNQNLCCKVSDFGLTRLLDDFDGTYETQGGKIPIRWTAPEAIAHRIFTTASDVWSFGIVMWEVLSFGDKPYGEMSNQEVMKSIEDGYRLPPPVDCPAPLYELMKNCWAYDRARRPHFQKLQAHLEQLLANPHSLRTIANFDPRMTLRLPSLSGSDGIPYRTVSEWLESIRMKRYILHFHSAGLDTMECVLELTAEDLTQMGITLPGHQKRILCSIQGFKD
Chain of UniProt P06213 (whole entry, looked up): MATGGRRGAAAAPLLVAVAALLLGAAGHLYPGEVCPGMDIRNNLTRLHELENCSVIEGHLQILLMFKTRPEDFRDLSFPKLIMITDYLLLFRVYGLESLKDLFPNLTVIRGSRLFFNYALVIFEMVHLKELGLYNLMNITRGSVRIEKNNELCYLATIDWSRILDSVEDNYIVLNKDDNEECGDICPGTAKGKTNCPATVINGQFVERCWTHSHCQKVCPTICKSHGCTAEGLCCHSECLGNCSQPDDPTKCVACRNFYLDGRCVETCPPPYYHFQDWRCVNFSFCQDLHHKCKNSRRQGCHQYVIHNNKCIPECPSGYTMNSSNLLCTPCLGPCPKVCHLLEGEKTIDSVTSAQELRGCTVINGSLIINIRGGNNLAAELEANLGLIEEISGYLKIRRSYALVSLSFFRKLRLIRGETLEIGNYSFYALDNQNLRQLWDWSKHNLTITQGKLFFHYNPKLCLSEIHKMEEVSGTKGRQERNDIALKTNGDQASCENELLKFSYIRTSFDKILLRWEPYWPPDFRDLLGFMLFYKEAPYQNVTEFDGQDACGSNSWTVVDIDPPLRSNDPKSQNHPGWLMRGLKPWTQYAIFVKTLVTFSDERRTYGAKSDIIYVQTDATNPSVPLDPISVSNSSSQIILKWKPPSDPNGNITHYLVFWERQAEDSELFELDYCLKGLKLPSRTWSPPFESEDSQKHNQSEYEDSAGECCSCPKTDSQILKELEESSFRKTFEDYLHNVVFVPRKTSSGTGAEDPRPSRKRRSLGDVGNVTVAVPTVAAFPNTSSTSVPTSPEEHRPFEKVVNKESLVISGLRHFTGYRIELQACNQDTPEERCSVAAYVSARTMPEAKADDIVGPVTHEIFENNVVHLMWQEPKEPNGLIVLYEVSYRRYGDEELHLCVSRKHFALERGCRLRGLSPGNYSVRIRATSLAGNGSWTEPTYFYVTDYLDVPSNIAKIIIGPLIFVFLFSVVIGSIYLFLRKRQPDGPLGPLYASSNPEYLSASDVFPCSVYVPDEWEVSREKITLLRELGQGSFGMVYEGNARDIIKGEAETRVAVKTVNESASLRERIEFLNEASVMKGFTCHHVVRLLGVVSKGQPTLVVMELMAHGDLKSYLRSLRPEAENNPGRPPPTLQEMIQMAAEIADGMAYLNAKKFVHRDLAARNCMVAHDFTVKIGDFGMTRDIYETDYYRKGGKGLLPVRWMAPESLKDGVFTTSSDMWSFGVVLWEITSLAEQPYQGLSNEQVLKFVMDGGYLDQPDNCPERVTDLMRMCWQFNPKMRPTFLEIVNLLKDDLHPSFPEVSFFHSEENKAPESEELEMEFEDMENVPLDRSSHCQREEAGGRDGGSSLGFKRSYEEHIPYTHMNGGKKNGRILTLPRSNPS

Sample 1
Organism: Plasmodium berghei
Cells: Huh-7
Strain: liver stage
Tested at: 10 µM
Time: 24 h
Relative to: control
| Compound | parasite load [%] |
| --- | --- |
| C(=C\N1CCN(C(c2ccccc2)c2ccccc2)CC1)/Cc1ccccc1 | 69.5 |
| CN(C)C(=O)Oc1ccc[n+](C)c1 | 86.1 |
| CN[C@H]1CC[C@@H](c2ccc(Cl)c(Cl)c2)c2ccccc21 | 50.4 |
| O=C(O)c1cn(C2CC2)c2cc(N3CCNCC3)c(F)cc2c1=O | 98.4 |
| O=c1ccc2ccccc2[nH]1 | 5.6 |
| CC/C(=C(/CC)c1ccc(O)cc1)c1ccc(O)cc1 | 83.1 |

Sample 2
Structure (SMILES): CN(C(=O)c1ccccc1)c1cc(N(C)c2ccc3c(c2)CCc2ccc(C(=O)NCCN4CCOCC4)cc2C3=O)ccc1F
Observed: cell-free assay
Technique: competition with immobilised ligand
Tested at: 1 µM
| target | remaining binding [%] |
| --- | --- |
| Ephrin type-A receptor 1 (EPHA1, Homo sapiens, UniProt P21709) | 100 |
| Calcium/calmodulin-dependent protein kinase type IV (CAMK4, Homo sapiens, UniProt Q16566) | 100 |
| Receptor-type tyrosine-protein kinase FLT3 (FLT3, Homo sapiens, UniProt P36888, D835Y) | 98 |
| Death-associated protein kinase 3 (DAPK3, Homo sapiens, UniProt O43293) | 81 |
| Macrophage colony-stimulating factor 1 receptor, autoinhibited (CSF1R, Homo sapiens, UniProt P07333) | 100 |
| ALK tyrosine kinase receptor (ALK, Homo sapiens, UniProt Q9UM73, C1156Y) | 100 |
| MAP kinase-interacting serine/threonine-protein kinase 1 (MKNK1, Homo sapiens, UniProt Q9BUB5) | 100 |
| Wee1-like protein kinase 2 (WEE2, Homo sapiens, UniProt P0C1S8) | 100 |
| Serine/threonine-protein kinase VRK2 (VRK2, Homo sapiens, UniProt Q86Y07) | 100 |
| Serine/threonine-protein kinase Sgk2 (SGK2, Homo sapiens, UniProt Q9HBY8) | 99 |
| MAP kinase-activated protein kinase 2 (MAPKAPK2, Homo sapiens, UniProt P49137) | 100 |
| Tyrosine-protein kinase ABL1, phosphorylated (ABL1, Homo sapiens, UniProt P00519) | 100 |
| Dual specificity mitogen-activated protein kinase kinase 6 (MAP2K6, Homo sapiens, UniProt P52564) | 62 |

Sample 3
Cell line: mouse MPNST tumor cells
Technique: high-content immunofluorescence imaging
Item: nuclear SOX9
Tested at: 10 µM
Time: 12 h
Notes: mean of 2 replicates
Relative to: DMSO control
Direction: higher = more nuclear SOX9
| Structure (SMILES) | nuclear SOX9 intensity |
| --- | --- |
| NS(=O)(=O)c1cc2c(cc1Cl)NC(CC1CCCC1)NS2(=O)=O (stereo not drawn) | 98.9 % of DMSO |
| CC(C)n1nc(-c2cc3cc(O)ccc3[nH]2)c2c(N)ncnc21 | 170 % of DMSO |
| Cc1cc(-c2nc(C(=O)Nc3cn(C4CCOCC4)nc3C(N)=O)co2)ccn1 | 100 % of DMSO |
| CC[C@H]1OC(=O)[C@H](C)[C@@H](O[C@H]2C[C@@](C)(OC)[C@@H](O)[C@H](C)O2)[C@H](C)[C@@H](O[C@@H]2O[C@H](C)C[C@H](N(C)C)[C@H]2O)[C@](C)(O)C[C@@H](C)/C(=N\OCOCCOC)[C@H](C)[C@@H](O)[C@]1(C)O | 126 % of DMSO |
| CN(C)[C@@H]1CCc2[nH]c3ccc(NC(=O)c4ccc(F)cc4)cc3c2C1 | 115 % of DMSO |
| CNC[C@H](O)c1ccc(O)c(O)c1 | 101 % of DMSO |
| C[N+]1(C)CCC(OC(=O)C(O)(c2ccccc2)C2CCCC2)C1 (stereo not drawn) | 116 % of DMSO |

Sample 4
Structure (SMILES): Oc1cccc(-c2nc(N3CCOCC3)c3oc4ncccc4c3n2)c1
Observed: enzyme activity
Action: inhibitor
Tested at: 0.5 µM
Relative to: control
| target | remaining activity [%] |
| --- | --- |
| MAP/microtubule affinity-regulating kinase 3 (MARK3, Homo sapiens, UniProt P27448) | 97.4 |
| Tyrosine-protein kinase Fyn (FYN, Homo sapiens, UniProt P06241) | 91.7 |
| Tyrosine-protein kinase ITK/TSK (ITK, Homo sapiens, UniProt Q08881) | 93.1 |
| Serine/threonine-protein kinase MRCK alpha (CDC42BPA, Homo sapiens, UniProt Q5VT25) | 94.5 |
| Tyrosine-protein kinase Fgr (FGR, Homo sapiens, UniProt P09769) | 94.8 |
| Megakaryocyte-associated tyrosine-protein kinase (MATK, Homo sapiens, UniProt P42679) | 86.7 |
| PAS domain-containing serine/threonine-protein kinase (PASK, Homo sapiens, UniProt Q96RG2) | 83.8 |
| cAMP-dependent protein kinase catalytic subunit PRKX (PRKX, Homo sapiens, UniProt P51817) | 96.2 |
| Serine/threonine-protein kinase N1 (PKN1, Homo sapiens, UniProt Q16512) | 101 |
| Serine/threonine-protein kinase 25 (STK25, Homo sapiens, UniProt O00506) | 93.4 |
| Insulin receptor (INSR, Homo sapiens, UniProt P06213) | 98.6 |
| Tyrosine-protein kinase Fer (FER, Homo sapiens, UniProt P16591) | 97.8 |
| LIM domain kinase 1 (LIMK1, Homo sapiens, UniProt P53667) | 93.7 |
| ALK tyrosine kinase receptor (ALK, Homo sapiens, UniProt Q9UM73) | 90.5 |
| Serine/threonine-protein kinase NLK (NLK, Homo sapiens, UniProt Q9UBE8) | 97.4 |
| Vascular endothelial growth factor receptor 3 (FLT4, Homo sapiens, UniProt P35916) | 104 |
| Proto-oncogene tyrosine-protein kinase Src (SRC, Homo sapiens, UniProt P12931) | 97.2 |
| Serine/threonine-protein kinase TAO3 (TAOK3, Homo sapiens, UniProt Q9H2K8) | 86.8 |
| Homeodomain-interacting protein kinase 1 (HIPK1, Homo sapiens, UniProt Q86Z02) | 101 |

Excerpt of the above (sample 1):
| Compound | parasite load [%] |
| --- | --- |
| CC/C(=C(/CC)c1ccc(O)cc1)c1ccc(O)cc1 | 83.1 |
| CN[C@H]1CC[C@@H](c2ccc(Cl)c(Cl)c2)c2ccccc21 | 50.4 |
| C(=C\N1CCN(C(c2ccccc2)c2ccccc2)CC1)/Cc1ccccc1 | 69.5 |
| O=C(O)c1cn(C2CC2)c2cc(N3CCNCC3)c(F)cc2c1=O | 98.4 |
| O=c1ccc2ccccc2[nH]1 | 5.6 |
| CN(C)C(=O)Oc1ccc[n+](C)c1 | 86.1 |
